Assay results from different studies.
Numbered parts are unrelated; each lists some results of a single study. Changes are numbered by the printed parent chain.

Series 1
Target: RING finger protein unkempt homolog, zinc fingers 1-6, GST-SBP tag (UNK, Homo sapiens, UniProt Q9C0B0, residues 30-357)
Method: RNA Bind-n-Seq
Form: RNA
Matrix: in vitro
Tested at: not given
Setting: RNA with constant flanks, ends assumed
Baseline: input RNA pool
Reading: higher = stronger binding
Residues (chain): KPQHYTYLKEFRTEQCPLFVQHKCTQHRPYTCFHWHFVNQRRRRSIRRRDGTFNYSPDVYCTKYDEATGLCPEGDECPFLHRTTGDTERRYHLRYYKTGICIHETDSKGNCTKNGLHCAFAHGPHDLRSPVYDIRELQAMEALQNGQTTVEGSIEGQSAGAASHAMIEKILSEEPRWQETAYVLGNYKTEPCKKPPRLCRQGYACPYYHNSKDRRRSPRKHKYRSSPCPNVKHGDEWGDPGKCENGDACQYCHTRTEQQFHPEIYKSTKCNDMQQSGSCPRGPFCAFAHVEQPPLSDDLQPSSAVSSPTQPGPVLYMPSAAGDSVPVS
The bound/input enrichment of `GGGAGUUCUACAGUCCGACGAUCUAUUUUGUAAAUACUGUAUACCAUGUAUUAUGUGUACAUUGUUCAUACUUGAGAGGACAUUACCGUUUUGUUAUGAAAGUAUGUAUUUUGCCCUGCAGCUGUGGUGGUGUUUUGUAUAUACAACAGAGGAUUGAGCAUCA` is reported as 0.187 ratio.
For `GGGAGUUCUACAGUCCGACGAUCACAAAGCAGCUGACAGAAAUGCUACCCAGCAUCUUAAACCAGCUUGGUGCGGAUAGUCUGACCCGUUUAAGGAGACUGGCCGAAGCUCUGCCCAAACAAUCUGUGGAUGGAAAAGCACCACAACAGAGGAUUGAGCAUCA`, the bound/input enrichment was 0.0435 ratio.
With `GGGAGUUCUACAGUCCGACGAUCAGUAUAUGUAAAUGUCUGUUUUUCAUAAUUGCUCUUUAUAUUGUGUGUUAUCAGACAAGACCGUUAUUUAAGAAACAUGGGAAAUGCAGAAAUGACUGCAGUGCAGCAGUAAUUAUGGUGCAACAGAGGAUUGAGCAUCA` the bound/input enrichment was 0.351 ratio.
`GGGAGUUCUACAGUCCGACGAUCAUUUGGUCAAGGCCAGAAAGCACCCAGGUACAGAACAUCCUGCGCCAGAGAACAGAGAAUACCGAUAUUAAAAAGUAUUGUGUGCAGUACCUGGAGGAUGUAGGUUCUUUUGCAUACACUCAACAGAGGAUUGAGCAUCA` gave a bound/input enrichment of 0.145 ratio.
For `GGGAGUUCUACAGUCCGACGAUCAAUUUACAGCCUCUUUCUGAAAGGCUGACACUUCUUGCCAUUUUCGUAUCAACUUUUCUCUUCCGCCUGACAUGGCAAUUUAACCAGUUCAUGAUGCUGCUGCAGGCACUGGUGCUGUUCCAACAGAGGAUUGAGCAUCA`, the bound/input enrichment was 0.266 ratio.
For `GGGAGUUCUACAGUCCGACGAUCGAAGGAGACGGCGAGGGUGAGACCUAUUACUACGAAUACCCCUACUACGAAGACCCCGAAGACCCCGGGAAGGAGCCCACCCCCAGCAAGAAGCCCGUGGAAGCUGCCAAAGAAACCACACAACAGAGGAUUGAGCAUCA`, the bound/input enrichment was 0.24 ratio.
For `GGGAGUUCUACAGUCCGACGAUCCGCGUGCGUGCGUGUGUGUGCGCGCGCUAGUGUGUGGACAAGGAGGUGGGGGCAGCUGAGUCCGAGUCCCAACUCUUGGACUCCAUUUGCUAUUCUCUUCUUUCUCCCCCACACCUAUCUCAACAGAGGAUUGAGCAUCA`, the bound/input enrichment was 0.0907 ratio.
`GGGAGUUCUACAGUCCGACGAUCGUGUCCUGCUUUCAACUUAAAUCACUGAGGCAUCUCUACUGUUCUGUGAGCAUCAGGACUGCCGCGCUGUGUCACCACAUGAGAGUUCAGAAGCAGCCUUUCUGUGGAGGGUGGGAAUGACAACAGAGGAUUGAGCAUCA` gave a bound/input enrichment of 0.166 ratio.

Series 2
Target: Sal-like protein 4, full length isoform A (SALL4, Homo sapiens, UniProt Q9UJQ4, residues 1-1053)
Chain of UniProt Q9UJQ4 (whole entry, looked up): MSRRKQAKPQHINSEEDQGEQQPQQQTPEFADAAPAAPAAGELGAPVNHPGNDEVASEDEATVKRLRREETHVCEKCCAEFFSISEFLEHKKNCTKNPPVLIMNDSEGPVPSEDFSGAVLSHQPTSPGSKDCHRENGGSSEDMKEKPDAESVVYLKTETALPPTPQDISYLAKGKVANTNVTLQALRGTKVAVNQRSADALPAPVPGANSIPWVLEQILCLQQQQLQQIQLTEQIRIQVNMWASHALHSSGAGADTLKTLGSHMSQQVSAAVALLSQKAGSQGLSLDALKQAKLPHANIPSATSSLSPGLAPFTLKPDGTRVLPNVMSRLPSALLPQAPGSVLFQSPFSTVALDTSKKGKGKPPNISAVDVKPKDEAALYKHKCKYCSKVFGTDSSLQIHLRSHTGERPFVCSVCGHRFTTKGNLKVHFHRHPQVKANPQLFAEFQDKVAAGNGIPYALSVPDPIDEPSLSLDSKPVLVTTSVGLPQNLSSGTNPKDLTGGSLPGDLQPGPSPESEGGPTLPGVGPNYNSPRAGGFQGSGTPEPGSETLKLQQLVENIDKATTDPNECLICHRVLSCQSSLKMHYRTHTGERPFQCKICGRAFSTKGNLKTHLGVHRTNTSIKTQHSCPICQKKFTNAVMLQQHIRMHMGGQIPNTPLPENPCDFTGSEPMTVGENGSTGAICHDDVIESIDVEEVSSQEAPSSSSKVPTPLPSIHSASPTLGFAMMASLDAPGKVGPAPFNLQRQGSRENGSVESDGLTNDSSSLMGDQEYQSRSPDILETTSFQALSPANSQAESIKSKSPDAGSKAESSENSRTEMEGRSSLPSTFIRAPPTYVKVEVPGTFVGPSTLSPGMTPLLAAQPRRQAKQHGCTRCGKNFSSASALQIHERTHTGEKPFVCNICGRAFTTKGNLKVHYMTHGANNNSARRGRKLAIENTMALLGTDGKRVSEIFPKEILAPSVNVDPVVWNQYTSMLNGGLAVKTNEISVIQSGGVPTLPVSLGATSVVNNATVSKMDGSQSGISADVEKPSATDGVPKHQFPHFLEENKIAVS
Method: universal PBM
Form: double-stranded DNA, one strand shown
Matrix: in vitro
Tested at: 600 nM
Setting: 8-mer, flanks averaged, mean of replicates
Reading: higher = stronger binding
With `ATAGTCAC` the E-score was 0.13.
The E-score of `CCTTAGCG` is reported as -0.28.
For `ACTTACGG`, the E-score was 0.0107.
`ATACCGAT` has an E-score of 0.0877.
`ACCAGCCA` has an E-score of -0.219.
The E-score of `GAATACCA` is reported as 0.166.
`ATGAGGCG` has an E-score of -0.0796.
`CCGTGCAC` has an E-score of -0.192.
The E-score of `AATGATTC` is reported as 0.287.
For `ATGGACTA`, the E-score was 0.106.
For `CGTTTGGA`, the E-score was -0.0578.
`CCTTGAGC` gave an E-score of -0.0869.
`ACAACGCC` gave an E-score of -0.0916.
`ACGACTAG` has an E-score of 0.0514.
`ACGACTCG` gave an E-score of -0.226.
For `ACTTTTTG`, the E-score was 0.114.
The E-score of `GTAAGCCA` is reported as -0.14.
For `ACAAGTGA`, the E-score was 0.087.
`GCGGACAC` gave an E-score of -0.336.
The E-score of `CTCCACTA` is reported as -0.0794.
For `ATAAGTCC`, the E-score was 0.217.
For `CGCGCACG`, the E-score was -0.26.
With `CAACTAAC` the E-score was 0.0369.
For `GCCTTTCC`, the E-score was 0.0048.
The E-score of `AAATTCCT` is reported as 0.105.

Series 3
Target: CCNA2, cyclin fold, Cln2 fusion (human)
Method: yeast growth competition, sequencing
Matrix: yeast
Setting: strong parent motif
Baseline: not given
Reading: higher = stronger binding
Starting sequence: DOT1L docking peptide (human); SEAKRRIVFTITT
Under “normalised enrichment score”, `SEAARRIVFTITT [K4A]` is recorded as 1.15.
Under “normalised enrichment score”, `SEAKRRIVFTIAT [T12A]` is recorded as 2.8.
`SEAKRRIVATITT [F9A]`: “normalised enrichment score” 0.63.
`SAAKRRIVFTITT [E2A]`: “normalised enrichment score” 4.18.
`SEAKARIVFTITT [R5A]`: “normalised enrichment score” 0.244.
`AEAKRRIVFTITT [S1A]` — result for “normalised enrichment score”: 2.06.

Series 4
Target: NFE2L3, bZIP domain (human)
Method: DHFR protein complementation
Matrix: yeast
Setting: single substitutions, most at no-binding floor
Baseline: wild-type JUN-FOS pair
Reading: higher = stronger binding
Starting sequence: JUN, bZIP domain (human); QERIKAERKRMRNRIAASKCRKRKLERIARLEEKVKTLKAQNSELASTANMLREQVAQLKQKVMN; partner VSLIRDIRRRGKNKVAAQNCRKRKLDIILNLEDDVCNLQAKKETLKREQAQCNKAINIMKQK
With `R30F` the binding fitness was -1.49 natural log.
For `R30K`, the binding fitness was -1.44 natural log.
`T48M` has a binding fitness of -1.48 natural log.
With `I28F` the binding fitness was -1.53 natural log.
For `M51V`, the binding fitness was -1.51 natural log.
`A40H` gave a binding fitness of -1.42 natural log.
With `L38E` the binding fitness was -1.54 natural log.
`A49V` has a binding fitness of -1.55 natural log.
With `E44M` the binding fitness was -1.4 natural log.
With `A49Q` the binding fitness was -1.55 natural log.
`A40G` has a binding fitness of -1.41 natural log.
With `T48R` the binding fitness was -1.54 natural log.
`K39S` has a binding fitness of -1.55 natural log.
`E33I` has a binding fitness of -1.5 natural log.
`Q41R` has a binding fitness of -1.51 natural log.
For `T37E`, the binding fitness was -1.53 natural log.

Series 5
Target: RNA binding protein fox-1 homolog 2, RRM domain, GST-SBP tag (RBFOX2, Homo sapiens, UniProt O43251-10, residues 100-194)
Method: RNA Bind-n-Seq
Form: RNA
Matrix: in vitro
Tested at: 365 nM
Setting: natural RNA segment, single round, ends assumed
Baseline: no-protein control
Reading: higher = stronger binding
Construct (chain): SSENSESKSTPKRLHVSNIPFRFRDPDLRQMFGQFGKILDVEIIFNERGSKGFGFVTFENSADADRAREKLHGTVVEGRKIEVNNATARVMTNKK
For `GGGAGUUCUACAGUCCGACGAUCGGGUGGGUAUCCAUGAUGUGUGCCCAGCCUGGAUGUCAGCUGUGUCCUGUGGGGGCGUGUGUGUAACUGUAGUGUAGUCAGGUGCUCAACGGAGAAUAUAAACAAAAAAAUGGAAUUCUCGGGUGCCAA`, “RBNS enrichment (R)” read 0.922.
For `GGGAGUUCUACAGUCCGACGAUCUGUGGUGGCCCACAUGGCUCUGCCCAGUGUCCUGUGCUUUGCCACAGUCCUCUGGGGUCAGUGUCUCGGGCAGUGGGAUGGAACUGUGUGAUUGCUCUUAGGUGAGUUCCUGGAAUUCUCGGGUGCCAA`, “RBNS enrichment (R)” read 0.505.
For `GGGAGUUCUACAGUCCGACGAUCAUAAUGGGAUUUUCUUUUCUUUUCUCUGGUAAUAUUGACUUGUAUAUUUUAAGAAAUAACAGAAAGCCUGGGUGACAUUUGGGAGACAUGUGACAUUUAUAUAUUGAAUUUGGAAUUCUCGGGUGCCAA`, “RBNS enrichment (R)” read 1.86.
Under “RBNS enrichment (R)”, `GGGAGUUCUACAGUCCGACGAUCGGUGGGUGUGCUUUUCAUAGGCUUCCCUUUGCCUUAAACCUGAAGAUGUCUCCUCAAGCCUGUGGGCAGCAUGCCCAGAUUCCCAGACUAAGACACUGUGACAGUUGUCUUGGAAUUCUCGGGUGCCAA` is recorded as 1.79.
Under “RBNS enrichment (R)”, `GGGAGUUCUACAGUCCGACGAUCACCGCUGCACUAAGGACUCACGGCCCAGCGUCCACAAGACUGAGGCCCUGUCCCUGCUCAGAGAACAGAUCCGGAGCAGGUGGUCUGGUCAGUCAGGAUGGAACAGUGCUUGGAAUUCUCGGGUGCCAA` is recorded as 0.246.
For `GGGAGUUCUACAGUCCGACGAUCCUUGAGUGUGUCUGCGUGUUUACACCCGUCCCUCUGCUGGCCGCCCCCGUGCGAGCGGCACCCCUGCCCUGCCCUCCACAGAAUUGGGUUCCAAGGGCUGUUCCAGACAAUGGAAUUCUCGGGUGCCAA`, “RBNS enrichment (R)” read 0.377.
`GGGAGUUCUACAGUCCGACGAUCUUGCUUUUUAUAUUUAACUAGGAUACUUUUAUAUGAUGGGUGCUUUGAGUGUGAAUGCAGCAGGCUCUCUUGUUUCCGAGGUGCUGCUUUUGCAGGUGACCUGGUUACUUUGGAAUUCUCGGGUGCCAA` — result for “RBNS enrichment (R)”: 2.12.
`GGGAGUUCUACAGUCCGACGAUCGCUGGUGUGCACAGGGGCAGGCAGGUCAGCUGGCCUGGGGAAGAGCAUUGUGGCUCCUAGUGCAGCCCUGCUUCCACUCUUGGUUUAGCUGGAACCUUCCCACUCAUGGAUGGAAUUCUCGGGUGCCAA` — result for “RBNS enrichment (R)”: 0.595.

Some of these lines once more (series 4):
For `M51V`, the binding fitness was -1.51 natural log.
`A40H` gave a binding fitness of -1.42 natural log.
With `L38E` the binding fitness was -1.54 natural log.
`A49V` has a binding fitness of -1.55 natural log.
With `E44M` the binding fitness was -1.4 natural log.
With `A49Q` the binding fitness was -1.55 natural log.
`A40G` has a binding fitness of -1.41 natural log.
With `T48R` the binding fitness was -1.54 natural log.
`K39S` has a binding fitness of -1.55 natural log.
